# Measurements of several laboratories.
# Every numbered part comes from another study and shows a few of its results, in no order. Substitutions count along the parent as printed.

# Study 1
# Target: Interferon regulatory factor 7, full length, phosphomimetic (IRF7, Homo sapiens, UniProt Q92985, residues 1-503, S471D/S472D/S475D/S476D/S477D/S483D/S484D/S487D)
# Technique: protein-binding microarray
# Form: double-stranded DNA, one strand shown
# Matrix: in vitro
# Tested at: 2200 nM top
# Notes: 60-bp whole probe
# Added: salmon DNA 0.4 mg/ml
# Reference: random background probes
# Reading: higher = stronger binding
# Constant ends, left off below: GCCTAGCAC … GTCTTGATTCGCTTGACGCTGCTG
# Residues (chain): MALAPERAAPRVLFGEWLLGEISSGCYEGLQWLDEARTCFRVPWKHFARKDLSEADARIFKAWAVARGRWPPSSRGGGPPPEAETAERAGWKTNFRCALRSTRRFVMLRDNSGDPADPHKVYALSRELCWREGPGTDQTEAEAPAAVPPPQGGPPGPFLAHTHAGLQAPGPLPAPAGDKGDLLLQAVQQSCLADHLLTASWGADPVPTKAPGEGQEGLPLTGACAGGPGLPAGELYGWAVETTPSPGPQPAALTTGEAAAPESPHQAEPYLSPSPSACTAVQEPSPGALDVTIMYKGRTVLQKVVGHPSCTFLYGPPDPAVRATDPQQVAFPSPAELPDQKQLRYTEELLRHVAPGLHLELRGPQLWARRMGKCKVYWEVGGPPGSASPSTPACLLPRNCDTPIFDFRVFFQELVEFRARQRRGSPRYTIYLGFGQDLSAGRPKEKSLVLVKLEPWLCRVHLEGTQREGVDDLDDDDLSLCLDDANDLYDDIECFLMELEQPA
Strand,fitted relative affinity [z-score]
TGAAATTTTAGTAACACAGAGTGCTAG,-0.709
TTAGAACTGAGGTATCGATTAGTGCTA,-0.839
GACGGTAACCTTATCCTGACGTGCTAG,0.459
GACGGACTGGGTTTCGGGAAGTGCTAG,0.26
TTAGATTTCGGGTTTCGATAAGTGCTA,4.8
TAATTTTTACTTTCTGAATGGTGCTAG,4.37
ATCTTCATGAAATTTTAGTAAGTGCTA,-0.394
AAAACTCTTTATTTAAGCTCGTGCTAG,-0.566
GTCACTCTCAGAATCTCTCAGTGCTAG,0.891
TCATGTCTGGAGTCTCTGACTGTGCTA,0.482
TCAATACTGATTTCCACACTGTGCTAG,1.07
GTTTCTCTTTCCTTCTTGATGTGCTAG,6.84
TTGGATATCAGACTGGATTAGTGCTAG,0.00315
GACGGTTTCGACACTTGGGACGTGCTA,2.44
TTAGAAATCGGGTATCGATTAGTGCTA,-0.173
GACGATATCAGACTGTAGACGTGCTAG,0.144
CTTTAACTTATTCTCTACTTGTGCTAG,1.1
TTATGTTTCGGTATCGGTTAGTGCTAG,6.59
TCATATATATATTGTTAGACTGTGCTA,0.584

# Study 2
# Target: RNA binding protein fox-1 homolog 2, RRM domain, GST-SBP tag (RBFOX2, Homo sapiens, UniProt O43251-10, residues 100-194)
# Technique: RNA Bind-n-Seq
# Form: RNA
# Matrix: in vitro
# Tested at: 365 nM
# Notes: natural RNA segment, single round, ends assumed
# Reference: no-protein control
# Reading: higher = stronger binding
# Constant ends, left off below: GGGAGUUCUACAGUCCGACGAUC … UGGAAUUCUCGGGUGCCAA
# Target sequence (chain): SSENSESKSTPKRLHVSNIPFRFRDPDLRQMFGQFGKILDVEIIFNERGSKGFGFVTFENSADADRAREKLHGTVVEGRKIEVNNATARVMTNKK
Strand,RBNS enrichment (R)
AGCCCUGGCACUAAUGCUGUACAGGUUUUUUUCCUGUUAGGAGAGCUGAGGCCAGCUGCCCACUGAGUCUCCUGUCCCUGAGAAGGGAGUAUGGCAGGGCUGGGAUGCGG,0.277
GCCCAGGGUCUAGGGUGUGCACUGGGCAAGGGCAGGGCGGCAGGUGUCAGGCCGGCUUGGACAAUGAAACCCUGACCUUGCUGCAUUCCUUUUGCUUCCACCACCACUAG,0.596
UGGAAAAUGGACAAAAAAUAGAGAGAGAGGUAUUUAACUGCAAUAAACUGGCCAGUGUGGCCCCGCCUGUCUGUCUGUGUGUCCAUGUUGGGCAUGGGGUUGGGUAGGGU,2.52
GAGAAAAGCCUAGACUUUUAGUUGAUAGCCAGUUGAAAUAUCAUUGAUAGAAUUUUAGUUUUAGGAAAAAUUGGUUUGAUUUCUAGCUUUAUUACUAUUAGGUAUGUGAG,0.703
UGCACCUAUUCUGUAGUUGCAGCUGAUGCCUGAAUGUAUCCUAGCUGACAAAUUAUUGAUUAAUAAGAACUUGAAUUUCUGGAAGAUUCUUACUGUUAACCAAAUUUUGA,0.41
AGGGAUUUAUCCAAUCUAAGCCCUAACCCCACUUAGUGACCUCAGUGUUUUCUUCCAUUCCUUCUUACUGCCCUGUCCUCUGCCUUGGAAGAGGCUUUGGGAAUAGUUCA,0.252
ACAACAUUCAUCAUUUUACAUCCAGCUUUUUCACUUGACUUGUUUUCUCUUAAGCAUUUCUCCAUGCCGUGGCCGUGAGUAGUUCUUCAAAAGCAUGUUUUUGAUAAUUG,32
UACCGACAUUCCCCCAAGUUGUCCUCUAACCUCCACAUGUGUGCUGUGGUAUGUGUGUUCUCACGUGUGUGUGCACAUACACACACACACGCAUAUCAAUUAAUUUAAAA,0.646

# Study 3
# Target: ABI1, truncated, D143A, DHFR fusion (Arabidopsis thaliana)
# Technique: DHFR PCA, deep sequencing
# Matrix: yeast
# Notes: methotrexate growth selection, single substitutions
# Added: (+)-ABA 0.11 µM
# Reference: wild-type fitted maximum
# Reading: higher = stronger binding
# Starting sequence: PYL1, truncated, DHFR fusion (Arabidopsis thaliana); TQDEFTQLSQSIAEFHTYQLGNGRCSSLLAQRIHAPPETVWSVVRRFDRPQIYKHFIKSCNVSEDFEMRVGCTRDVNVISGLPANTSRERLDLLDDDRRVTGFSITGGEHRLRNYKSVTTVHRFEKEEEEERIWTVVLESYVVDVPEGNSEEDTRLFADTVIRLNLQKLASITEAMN
Variant,relative binding score [%]
R45T,3.91
H16N,-2.69
D96Y,-1.43
S104M,0.0238
S140A,1.41
S150C,18.7
M176N,2.33
V145H,-1.84
H110T,50.1
V136Q,-2.05
E139P,8.93
E151H,20.9
P146A,25
S26G,26
A84L,24.5

# Study 4
# Target: Fragile X messenger ribonucleoprotein 1, C-terminal low-complexity region (Fmr1, Mus musculus, UniProt P35922)
# Technique: RNA Bind-n-Seq
# Form: RNA
# Matrix: in vitro
# Tested at: 200 nM
# Notes: whole 134-nt RNA, ends assumed
# Added: 150 mM KCl
# Reference: input library
# Reading: higher = stronger binding
# Constant ends, left off below: GGGAGUUCUACAGUCCGACGAUC … UGGAAUUCUCGGGUGUCAAGG
Strand,log2 enrichment
AAGUCCUGUGCUACACAUCGUAUGUACCGAAUCGGGUGGGAAAAAGGGUUUUUGGGAAAGUAUUAUGUUACGCCGUUCGGAUCUGCACUU,0.854
UAACUUUAGAGGAGGAUCUGAUGGAUAUGGCAGUGGACGUGGAUUUGGGGAUGGCUAUGAUGGGUAUGGAGGAGGACCUGGAGGUGGCAA,0.191
AAGACAUUUGUUGUAUUUAUGGUUGUAACUGUACAUGCUUAUCAGGAUGAGACUGAAAGAAGGUAGGGCAAAAAUGGUUGAAUCUAUUUU,-0.202
CUCAAGUCCUGUGCUACACAUCGUAUGUACCGAAUCGGUUUGGGUUUGGUUUGGAAAGUAUUAUGUUACGCCGUUCGGAUCUGCACUUCC,-0.257
GUCCUGUGCUACACAUCGUAUGUACCGAAUCGGGCCCCCGGGCCCCCGGGGCCCCCGGAAAGUAUUAUGUUACGCCGUUCGGAUCUGCAC,-1.02
UCCUCAAGUCCUGUGCUACACAUCGUAUGUACCGAAUCGGCGGCGGGGCGGGAAAGUAUUAUGUUACGCCGUUCGGAUCUGCACUUCCAG,0.427
UGUGCUACACAUCGUAUGUACCGAAUCGGGCCCCCCCGGGGCCCCCCCGGGGCCCCCCCGGGGAAAGUAUUAUGUUACGCCGUUCGGAUC,-2.21
CUCAAGUCCUGUGCUACACAUCGUAUGUACCGAAUCGGUGGUUUGGUUUUUGGAAAGUAUUAUGUUACGCCGUUCGGAUCUGCACUUCCA,-0.172
CUCAAGUCCUGUGCUACACAUCGUAUGUACCGAAUCGGUUUGGUUUUUGGUGGAAAGUAUUAUGUUACGCCGUUCGGAUCUGCACUUCCA,-0.0741

# Excerpt of the above (study 3):
Variant,relative binding score [%]
S104M,0.0238
S140A,1.41
S150C,18.7
